Measurements collected from several papers.
Parts stem from different laboratories: compare values within a part only.

Block 1 — technique: universal PBM; molecule type: double-stranded DNA, one strand shown; sample: in vitro; concentration: not given; direction: higher = stronger binding
Target: Sal-like protein 4, full length isoform B (SALL4, Homo sapiens, UniProt Q9UJQ4-2, residues 1-616)
Setting: 8-mer, flanks averaged, mean of replicates
`CGCCCGTC` gave an E-score of -0.215.
`ACTAGAGT` gave an E-score of 0.0853.
`GCCGTGGA` has an E-score of -0.219.
`AGAGAACT` gave an E-score of -0.0564.

Block 2 — technique: protein-binding microarray; molecule type: double-stranded DNA, one strand shown; sample: in vitro; concentration: 940 nM top; setting: 60-bp whole probe; added: salmon DNA 0.4 mg/ml; baseline: random background probes; direction: higher = stronger binding
Target: Interferon regulatory factor 5, full length, phosphomimetic (IRF5, Homo sapiens, UniProt Q13568-2, residues 1-514, S451D/S453D/S456D/S462D)
Under “fitted relative affinity”, `GCCTAGCACTTTGAACTGGGGTTTCGATTAGTGCTAGTCTTGATTCGCTTGACGCTGCTG` is recorded as 5.7 z-score.
Under “fitted relative affinity”, `GCCTAGCACTTAGATCTCAGTATCTATTAGTGCTAGGTCTTGATTCGCTTGACGCTGCTG` is recorded as 1.16 z-score.
Under “fitted relative affinity”, `GCCTAGCACGACGGACTGGGTCTCGTGACGTGCTAGGTCTTGATTCGCTTGACGCTGCTG` is recorded as -0.157 z-score.

Block 3 — technique: RNA Bind-n-Seq; molecule type: RNA; sample: in vitro; concentration: 1 µM; setting: whole 134-nt RNA, ends assumed; added: 150 mM KCl; baseline: input library; direction: higher = stronger binding
Target: Ras GTPase-activating protein-binding protein 1, C-terminal RGG region (G3BP1, Homo sapiens, UniProt Q13283)
Chain of UniProt Q13283 (whole entry, looked up): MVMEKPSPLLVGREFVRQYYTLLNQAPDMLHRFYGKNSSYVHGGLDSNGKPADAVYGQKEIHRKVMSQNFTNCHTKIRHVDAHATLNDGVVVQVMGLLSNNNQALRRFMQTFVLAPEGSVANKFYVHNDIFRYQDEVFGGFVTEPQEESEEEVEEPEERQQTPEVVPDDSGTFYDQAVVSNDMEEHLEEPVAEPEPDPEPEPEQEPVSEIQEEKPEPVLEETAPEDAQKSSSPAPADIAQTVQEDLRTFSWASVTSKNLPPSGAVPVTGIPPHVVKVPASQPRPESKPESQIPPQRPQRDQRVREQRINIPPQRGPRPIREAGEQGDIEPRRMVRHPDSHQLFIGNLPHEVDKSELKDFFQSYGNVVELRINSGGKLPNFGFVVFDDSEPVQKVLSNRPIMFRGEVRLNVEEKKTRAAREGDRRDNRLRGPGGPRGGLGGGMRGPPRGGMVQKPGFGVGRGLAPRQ
`GGGAGUUCUACAGUCCGACGAUCAAGUCCUGUGCUACACAUCGUAUGUACCGAAUCGGUUUUUUUGGAAAAAAAGGUGGAAAGUAUUAUGUUACGCCGUUCGGAUCUGCACUUUGGAAUUCUCGGGUGUCAAGG` gave a log2 enrichment of -2.1.
With `GGGAGUUCUACAGUCCGACGAUCGUCCUGUGCUACACAUCGUAUGUACCGAAUCGGUUUUUUGGUUUUUUGGGUUUUUUGGAAAGUAUUAUGUUACGCCGUUCGGAUCUGCACUGGAAUUCUCGGGUGUCAAGG` the log2 enrichment was -1.25.
With `GGGAGUUCUACAGUCCGACGAUCUCAAGUCCUGUGCUACACAUCGUAUGUACCGAAUCGGGGUUUGGGUUUGGUUUGGAAAGUAUUAUGUUACGCCGUUCGGAUCUGCACUUCUGGAAUUCUCGGGUGUCAAGG` the log2 enrichment was -0.821.
With `GGGAGUUCUACAGUCCGACGAUCUGGGAGGUGGAUUUUGUUUAUUUUUUUAGCUCAUUUCCAGGGGUGGCAAUUUUUUUUUAAUAUGUGUCAUGAAUAAAGUUGUUUUUGAAAUGGAAUUCUCGGGUGUCAAGG` the log2 enrichment was 3.67.

Further values, each from its own experiment
`PhoQ, residues 284 288 289 292 302 303 TNSAEL` gave a fold induction of 1.67 (PhoP, residues 12 14 15 18 19 AQALL (Escherichia coli, UniProt P23836); Sort-seq, measured: YFP reporter; E. coli; PhoQ-PhoP variant library, added: 10 µM Mg2+; baseline: high Mg2+ state, higher = stronger signaling).

Some of these lines once more (block 2):
Under “fitted relative affinity”, `GCCTAGCACTTTGAACTGGGGTTTCGATTAGTGCTAGTCTTGATTCGCTTGACGCTGCTG` is recorded as 5.7 z-score.
